Measured values from different studies.
Target: Histone deacetylase 1 (HDAC1, Homo sapiens, UniProt Q13547)
Sequence of UniProt Q13547 (whole entry, looked up): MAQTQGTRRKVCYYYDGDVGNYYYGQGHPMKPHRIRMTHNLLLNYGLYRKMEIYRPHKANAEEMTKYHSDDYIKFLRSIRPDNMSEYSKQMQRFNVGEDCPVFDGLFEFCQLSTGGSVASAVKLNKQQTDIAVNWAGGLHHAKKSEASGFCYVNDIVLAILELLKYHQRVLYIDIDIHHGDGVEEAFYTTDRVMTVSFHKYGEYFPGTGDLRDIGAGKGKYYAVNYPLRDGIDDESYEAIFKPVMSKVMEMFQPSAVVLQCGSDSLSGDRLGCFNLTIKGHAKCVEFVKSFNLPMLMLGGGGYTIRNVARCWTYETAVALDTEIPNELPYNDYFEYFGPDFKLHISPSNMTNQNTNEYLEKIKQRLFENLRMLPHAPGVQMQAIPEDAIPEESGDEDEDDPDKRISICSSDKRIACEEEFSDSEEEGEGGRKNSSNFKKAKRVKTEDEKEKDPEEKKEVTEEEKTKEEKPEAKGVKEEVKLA
Observed: enzyme activity
Action: inhibitor

The IC50 of `C=CC[C@@H]1NC(=O)CCSCc2nc3ccccc3nc2CSC/C=C/CNC(=O)[C@H](CCCCCC(=O)N(O)CCCCCC)NC1=O` is reported as 1100 nM (fluorescence).
`Cc1nc2c(F)cc(-c3nc(Nc4ccc(CC(=O)NCCCCCCCC(=O)NO)cc4)ncc3F)cc2n1C(C)C` gave an IC50 of 75 nM.
`CC[C@H](C)[C@@H]1NC(=O)[C@H](Cc2ccccc2C(F)(F)F)NC(=O)CCSCc2cccc(n2)CSCCCNC(=O)[C@H](CCCCCC(=O)NO)NC1=O` has an IC50 of 11 nM (fluorescence).
`COC(=O)CCCCCCC(=O)Nc1ccc(Nc2ncc(F)c(-c3cc(F)c4nc(C)n(C(C)C)c4c3)n2)cn1` gave an IC50 of over 1000 nM.
`CC(C)c1ccc(OS(=O)(=O)Oc2cncc(C(=O)NO)c2)cc1` gave an IC50 of 2060 nM (fluorescence).
`COC(=O)CCCCCCC(=O)Nc1cccc(Nc2ncc(F)c(-c3cc(F)c4nc(C)n(C(C)C)c4c3)n2)c1` has an IC50 of over 1000 nM.
`O=C(CCc1ccc(CNC(C(=O)O)C2CCCCC2)cn1)NO` (stereo not drawn) gave an IC50 of 550 nM.
`C[S@@](=N)(=O)c1ccc(C(=O)Nc2cc(-c3ccc(F)cc3)ccc2N)cc1` has an IC50 of 5 nM (fluorescence).
`O=C(NO)c1cncc(OS(=O)(=O)Oc2ccc(Oc3ccccc3)cc2)c1` has an IC50 of 6260 nM (fluorescence).

For quick reference, copied from above:
The IC50 of `C=CC[C@@H]1NC(=O)CCSCc2nc3ccccc3nc2CSC/C=C/CNC(=O)[C@H](CCCCCC(=O)N(O)CCCCCC)NC1=O` is reported as 1100 nM (fluorescence).
